Measurements collected from several papers.
Each numbered part is a random draw from the data of one study; scales do not carry over between parts. Positions count from the first letter of the parent shown.

Sample 1
Target: CCND2, cyclin fold, Cln2 fusion (human)
Method: yeast growth competition, sequencing
Matrix: yeast
Notes: weak parent motif
Relative to: not given
Reading: higher = stronger binding
Starting sequence: RB1 docking peptide (human); PKPLKKLRFDIEG; partner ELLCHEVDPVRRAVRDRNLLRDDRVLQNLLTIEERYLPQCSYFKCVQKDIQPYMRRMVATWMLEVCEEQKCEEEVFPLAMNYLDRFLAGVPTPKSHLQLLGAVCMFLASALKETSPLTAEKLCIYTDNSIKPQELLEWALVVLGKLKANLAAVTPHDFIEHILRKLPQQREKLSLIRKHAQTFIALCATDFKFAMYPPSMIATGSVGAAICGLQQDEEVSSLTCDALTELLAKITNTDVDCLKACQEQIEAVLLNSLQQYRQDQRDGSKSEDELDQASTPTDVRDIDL
| Substitution | normalised enrichment score |
| --- | --- |
| PKPLKKLRFLIEG [D10L] | -0.506 |
| PKPLKKLRFKIEG [D10K] | 0.285 |
| KKPLKKLRFDIEG [P1K] | 0.225 |
| PKPLKKLCFDIEG [R8C] | -0.017 |
| PKPLDKLRFDIEG [K5D] | 0.0589 |
| MKPLKKLRFDIEG [P1M] | 0.00115 |
| PKPIKKLRFDIEG [L4I] | 0.683 |
| PKPLNKLRFDIEG [K5N] | -0.0608 |
| PKPLKKHRFDIEG [L7H] | 0.204 |
| PKPYKKLRFDIEG [L4Y] | 0.57 |
| PKPLKKLRHDIEG [F9H] | 0.143 |
| PKPLMKLRFDIEG [K5M] | -0.185 |
| PKPLYKLRFDIEG [K5Y] | 0.558 |
| PKPLKKLRFDIGG [E12G] | 0.367 |
| PKPLKKLRGDIEG [F9G] | 0.232 |
| PKPLKKLRFPIEG [D10P] | 0.376 |
| PKKLKKLRFDIEG [P3K] | -0.65 |

Sample 2
Target: ABI1, truncated, D143A, DHFR fusion (Arabidopsis thaliana)
Method: DHFR PCA, deep sequencing
Matrix: yeast
Notes: methotrexate growth selection, single substitutions
Together with: (+)-ABA 0.39 µM
Relative to: wild-type fitted maximum
Reading: higher = stronger binding
Starting sequence: PYL1, truncated, DHFR fusion (Arabidopsis thaliana); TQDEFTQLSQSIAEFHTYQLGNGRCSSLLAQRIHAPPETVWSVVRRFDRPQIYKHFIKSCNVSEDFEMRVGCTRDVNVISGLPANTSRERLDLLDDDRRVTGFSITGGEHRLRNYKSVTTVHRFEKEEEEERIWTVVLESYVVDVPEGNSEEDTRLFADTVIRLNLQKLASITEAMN
| Substitution | relative binding score |
| --- | --- |
| V70L | 4.66% |
| N77A | 57.2% |
| T106Q | 17.8% |
| E125Y | 47.4% |
| Q2C | 51.5% |
| G102I | 32.1% |
| I52M | 44.7% |
| P83E | 0.946% |
| L82V | 15% |
| A158F | -8.1% |
| M176R | 25.6% |
| N22F | 27.3% |
| L164H | 39.3% |
| K54V | -15.4% |
| L156M | 44.4% |
| T6K | 60.2% |
| E147G | -15.7% |
| V137A | 0.494% |
| L91P | -13.7% |
| F5C | 25.2% |
| T160E | 0.721% |

Sample 3
Target: Ras GTPase-activating protein-binding protein 1, full length (G3BP1, Homo sapiens, UniProt Q13283)
UniProt Q13283, sequence (whole entry, looked up): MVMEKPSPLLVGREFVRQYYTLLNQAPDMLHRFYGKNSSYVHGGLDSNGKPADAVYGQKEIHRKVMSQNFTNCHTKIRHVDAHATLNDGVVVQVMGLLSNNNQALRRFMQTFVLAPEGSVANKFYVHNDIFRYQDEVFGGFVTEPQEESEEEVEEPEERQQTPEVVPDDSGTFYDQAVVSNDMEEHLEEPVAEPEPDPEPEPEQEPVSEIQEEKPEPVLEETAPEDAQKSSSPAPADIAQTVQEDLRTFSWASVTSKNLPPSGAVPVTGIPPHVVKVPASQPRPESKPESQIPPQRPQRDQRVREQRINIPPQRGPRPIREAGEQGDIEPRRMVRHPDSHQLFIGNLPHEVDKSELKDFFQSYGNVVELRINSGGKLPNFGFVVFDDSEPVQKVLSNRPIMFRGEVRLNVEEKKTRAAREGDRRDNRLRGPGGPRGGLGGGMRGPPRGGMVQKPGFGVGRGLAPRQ
Method: RNA Bind-n-Seq
Form: RNA
Matrix: in vitro
Tested at: 200 nM
Notes: whole 134-nt RNA, ends assumed
Together with: 150 mM LiCl
Relative to: input library
Reading: higher = stronger binding
All molecules: 7-deaza-guanosine replaces G
Constant ends, left off below: GGGAGUUCUACAGUCCGACGAUC … UGGAAUUCUCGGGUGUCAAGG
| Oligonucleotide | log2 enrichment |
| --- | --- |
| AAGUCCUGUGCUACACAUCGUAUGUACCGAAUCGGGUGGGUUUUUUUGGGAAAGGGAAAGUAUUAUGUUACGCCGUUCGGAUCUGCACUU | 0.369 |
| UCCUGUGCUACACAUCGUAUGUACCGAAUCGGGGUUUUUUUGGGGUGGGGUUUUUGGGGAAAGUAUUAUGUUACGCCGUUCGGAUCUGCA | -0.744 |
| AAGUCCUGUGCUACACAUCGUAUGUACCGAAUCGGAAAAAAAGGAGGUUUUUUUGGAAAGUAUUAUGUUACGCCGUUCGGAUCUGCACUU | -1.44 |
| CCUGUGCUACACAUCGUAUGUACCGAAUCGGAAAAAAAGGAAAAAAAGGGAAAAAAAGGGGAAAGUAUUAUGUUACGCCGUUCGGAUCUG | -0.105 |
| UCUGUUUCCUCUGCCAGUGGCAAUGCAACACCUAACACUCCUGGGGAUGAGUCUCCCUGUGGUAUUAUUAUUCCUCAUGAAAACUCACCA | 0.249 |
| AGUCCUGUGCUACACAUCGUAUGUACCGAAUCGGGGUGGGGAGGGGAAAAAAAGGGGAAAGUAUUAUGUUACGCCGUUCGGAUCUGCACU | 0.693 |
| UAACUUUAAAGGAGGAUCUGAUGGAUAUGGCAGUGGACGUGGAUUUGGGGAUGGCUAUAAUGGGUAUGGAGGAGGACCUGGAGGUGGCAA | 0.0739 |
| UCAAGUCCUGUGCUACACAUCGUAUGUACCGAAUCGGAAAGGGGAAAGGGAAAGGAAAGUAUUAUGUUACGCCGUUCGGAUCUGCACUUC | -0.505 |

Sample 4
Target: Histone acetyltransferase KAT6A, both winged helices, GST fusion (KAT6A, Homo sapiens, UniProt Q92794, residues 1-181)
Method: protein binding microarray
Form: double-stranded DNA, one strand shown
Matrix: in vitro
Tested at: not given
Notes: 8-mer, flanks averaged, mean of 2 arrays, mostly near background
Relative to: not given
Reading: higher = stronger binding
Construct (chain): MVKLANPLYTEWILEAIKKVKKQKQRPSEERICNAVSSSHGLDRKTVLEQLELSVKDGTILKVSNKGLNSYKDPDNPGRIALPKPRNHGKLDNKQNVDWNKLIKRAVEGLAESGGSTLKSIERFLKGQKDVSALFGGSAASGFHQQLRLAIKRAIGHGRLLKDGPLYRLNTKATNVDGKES
| Oligonucleotide | E-score |
| --- | --- |
| GACGGGCA | 0.23 |
| TGCGATAA | -0.0741 |
| CTGAAACC | 0.0076 |
| CAATCTGC | -0.053 |
| ATGACGGA | 0.121 |
| CAGCAGTC | -0.0602 |
| AGCTGTCA | -0.239 |
| AGAAAGGC | 0.0423 |
| AAAGAGTC | -0.0522 |
| CGGTAAGC | 0.153 |
| GAAGATTC | -0.0308 |
| CGAACAAC | 0.0323 |
| ATGGCTGC | -0.05 |
| AGTGCCAA | -0.199 |
| CCGGAGAC | 0.168 |
| GCAGTCGC | 0.159 |
| ATTAATAC | 0.0566 |
| TAATAATA | -0.0218 |
| GAGGAGCA | -0.0318 |
| CTCGTCGA | -0.236 |

Sample 5
Target: TEF, bZIP domain (human)
Method: DHFR protein complementation
Matrix: yeast
Notes: single substitutions, most at no-binding floor
Relative to: wild-type JUN-FOS pair
Reading: higher = stronger binding
Starting sequence: JUN, bZIP domain (human); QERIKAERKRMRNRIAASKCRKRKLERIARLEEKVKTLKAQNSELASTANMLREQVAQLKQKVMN; partner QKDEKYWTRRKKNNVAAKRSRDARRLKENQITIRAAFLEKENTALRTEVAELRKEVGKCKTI
| Substitution | binding fitness [natural log] |
| --- | --- |
| L52T | -1.48 |
| A29R | -1.49 |
| L45N | -1.49 |
| L59G | -1.21 |
| L45A | -1.59 |
| E33A | -1.31 |
| V56P | -1.53 |
| L31R | -1.46 |
| K36G | -1.49 |
| N42L | -1.44 |
| L31M | -1.51 |
| T37W | -1.51 |
| E44Y | -1.48 |
| T48L | -1.49 |

A few entries again (sample 2):
| Substitution | relative binding score |
| --- | --- |
| L91P | -13.7% |
| E147G | -15.7% |
| N22F | 27.3% |
| Q2C | 51.5% |
| N77A | 57.2% |
| T6K | 60.2% |
| I52M | 44.7% |
